Literature values, collected from citations in different studies.
Each line is one published result; not all experiments were run side by side. ± marks the error that the study gave.

Compound | tested on | assay | test system | conditions | scale | quantity | value
CN(CCN)Cc1ccccc1Sc1ccccc1Cl | CARM1 (PRMT4) | enzyme activity, inhibitor |  |  | relative to: IC50 CARM1 over PRMT1 | selectivity ratio | 60 fold
C[C@H](CN(C)Cc1ccccc1)NC(=O)c1ccc(-c2noc(C(F)(F)F)n2)cc1 | class I/IIb HDAC | enzyme activity, inhibitor | HT-29 |  |  | IC50 | > 1000 nM
O=C(C=C(O)C(F)(F)C(F)(F)F)c1ccc(NCC2CC2)nc1 | Plasmodium falciparum formate-nitrite transporter | L-lactate transport, inhibitor, radiolabelled uptake | yeast |  |  | IC50 | 170 ± 10 nM
COc1cc(F)cc2c(N3CCN4c5c(F)cccc5OC[C@@H]4C3)c(C#N)nnc12 | mGluR1-5 and mGluR8 |  |  | selectivity over mGlu7 |  | EC50 | > 30000 nM
Cc1[nH]c(=O)c(CNC(=O)c2cc(Cl)c3c(c2C)O[C@@](C)([C@H]2CC[C@H](N(C)C)CC2)O3)c(C)c1O | EZH2 | enzyme activity, inhibitor |  |  | relative to: IC50 compound over valemetostat | potency ratio | ~4.3 fold
C/C(N)=N/C(=N\S(=O)(=O)c1ccc(C(F)(F)F)cc1)N1C[C@@H](c2ccccc2)C(c2ccc(Cl)cc2)=N1 | cannabinoid CB1 receptor | receptor activity |  | concentration not given |  | effect | no effect
CCCCCCCCCC(=O)CC(=O)NC1CCCCC1=O (stereo not drawn) | RhlR Pseudomonas aeruginosa | rhlI-gfp(LVA) reporter, inhibitor | Pseudomonas aeruginosa, PAO-JP2 | 50 µM |  | inhibition | 70%
CC(C)CNc1ccc(C(=O)C=C(O)C(F)(F)C(F)(F)F)cn1 | Plasmodium falciparum formate-nitrite transporter | L-lactate transport, inhibitor, radiolabelled uptake | yeast |  |  | IC50 | 280 ± 30 nM
CCCCCCCCCC(=O)NC1CCCC1 | RhlR, Pseudomonas aeruginosa | reporter gene, antagonist, rhlA-lacZ reporter | Pseudomonas aeruginosa, PAO1 | 250 µM |  | inhibition | 80%
O=c1ccc(OCCCN2CCCCC2)nn1-c1ccc(Cl)c(Cl)c1 | NMDA receptor |  |  | 1.0 µM |  | inhibition | 27.7 ± 2.1%
COc1ccc(Nc2nc(Nc3ccc(OCC[18F])cc3)ncc2Br)cc1 |  |  | S180 tumour-bearing mice, bone | intravenous, 30 min |  | tissue uptake | 3.79 ± 0.42 %ID/g
Cn1nnnc1Sc1ncnc2scc(-c3cccc(S(C)(=O)=O)c3)c12 | all other kinases | inhibitor |  | 10 µM | relative to: control | remaining activity | > 40%
c1ccc2c(C3NCCc4sccc43)c[nH]c2c1 (stereo not drawn) | P-glycoprotein (ABCB1) | inhibitor |  | 20 µM | relative to: untreated cells, higher = stronger inhibition | fluorescence activity ratio | 5.14
CCCCCCC(=O)N[C@H]1CCOC1=O | TraR, Agrobacterium tumefaciens | reporter gene, antagonist, traI-lacZ reporter |  | 10 µM |  | inhibition | > 90%
COc1cc2c(cc1OC)C(c1c[nH]c3ccccc13)NCC2 (stereo not drawn) | P-glycoprotein (ABCB1) | inhibitor |  | 20 µM | relative to: untreated cells, higher = stronger inhibition | fluorescence activity ratio | 4.04
O=C(C=C(O)C(F)(F)C(F)(F)F)c1ccco1 | Plasmodium falciparum formate-nitrite transporter | L-lactate transport, inhibitor, radiolabelled uptake | yeast |  |  | IC50 | 170 ± 60 nM
c1ccc2c(C3NCCc4c3[nH]c3ccccc43)c[nH]c2c1 (stereo not drawn) | P-glycoprotein (ABCB1) | inhibitor |  | 20 µM | relative to: untreated cells, higher = stronger inhibition | fluorescence activity ratio | 2.26
CCN(CC)c1ccc(C(=O)C=C(O)C(F)(F)C(F)(F)F)cn1 | Plasmodium falciparum formate-nitrite transporter | L-lactate transport, inhibitor, radiolabelled uptake | yeast |  |  | IC50 | 380 ± 320 nM
CS(=O)(=O)c1ccc(Nc2nc(OCC3CCCCC3)c3nc[nH]c3n2)cc1 | JNK1 |  |  |  | more negative = stronger binding | binding free energy | -9.41 kcal/mol
O=C(C=C(O)C(F)(F)C(F)(F)F)c1ccc(NCc2ccccc2)nc1 | Plasmodium falciparum formate-nitrite transporter | L-lactate transport, inhibitor, radiolabelled uptake | yeast |  |  | IC50 | 510 ± 150 nM
CS(=O)(=O)Nc1ccc(-c2cncc(-c3cccc4cc[nH]c34)c2)cc1 | TNIK |  |  | 1 µM |  | remaining activity | < 30%
CCCCCNc1ccc(C(=O)C=C(O)C(F)(F)C(F)(F)F)cn1 | Plasmodium falciparum formate-nitrite transporter | L-lactate transport, inhibitor, radiolabelled uptake | yeast |  |  | IC50 | 390 ± 30 nM
C[S+]([O-])c1ccc(Nc2nc(OCC3CCCCC3)c3nc[nH]c3n2)cc1 (stereo not drawn) | MCL1 | experimental benchmark set |  |  |  | binding free energy | -7.85 kcal/mol
O=C(C=C(O)C(F)(F)C(F)(F)C(F)(F)F)c1cccnc1 | Plasmodium falciparum formate-nitrite transporter | L-lactate transport, inhibitor, radiolabelled uptake | yeast |  |  | IC50 | 340 ± 50 nM
O=C(N[C@@H](CCCCNC(=O)c1ccc([N+](=O)[O-])o1)c1nc2ccccc2[nH]1)c1ccc(-c2ccccc2)cc1 | STING HAQ allele, human | agonist | THP-1 (STING HAQ) |  |  | EC50 | 800 nM
O=C(C=C(O)C(F)(F)C(F)(F)F)c1ccc(NC2CCC2)nc1 | Plasmodium falciparum formate-nitrite transporter | L-lactate transport, inhibitor, radiolabelled uptake | yeast |  |  | IC50 | 260 ± 30 nM
CCC1C=C(C)C(O)C(C)CC(OC)C2OC(O)(C(=O)C(=O)N3CCCCC3C(=O)OC(C(C)=CC3CCC(O)C(OC)C3)C(C)C(O)CC1=O)C(C)CC2OC (stereo not drawn) | FKBP12 | binding, radioligand displacement |  | added: [3H]dihydro-FK506 |  | EC50 | 0.7 nM

Some of these lines once more:
Compound | tested on | assay | test system | conditions | scale | quantity | value
Cn1nnnc1Sc1ncnc2scc(-c3cccc(S(C)(=O)=O)c3)c12 | all other kinases | inhibitor |  | 10 µM | relative to: control | remaining activity | > 40%
c1ccc2c(C3NCCc4sccc43)c[nH]c2c1 (stereo not drawn) | P-glycoprotein (ABCB1) | inhibitor |  | 20 µM | relative to: untreated cells, higher = stronger inhibition | fluorescence activity ratio | 5.14
CCCCCCC(=O)N[C@H]1CCOC1=O | TraR, Agrobacterium tumefaciens | reporter gene, antagonist, traI-lacZ reporter |  | 10 µM |  | inhibition | > 90%
